Published values from different studies.
Protocols differ between the studies behind these lines. Numbers after ± are the reported error.
Spike glycoprotein: Spike glycoprotein (Severe acute respiratory syndrome coronavirus 2, UniProt P0DTC2)
gag-pol protease: Gag-Pol polyprotein, protease (gag-pol, Human immunodeficiency virus type 1 group M subtype B, UniProt P04585)
gag-pol K653T reverse transcriptase: Gag-Pol polyprotein, reverse transcriptase (gag-pol, Human immunodeficiency virus type 1 group M subtype B, UniProt P04585, K653T)
UniProt P43143, sequence (whole entry, looked up): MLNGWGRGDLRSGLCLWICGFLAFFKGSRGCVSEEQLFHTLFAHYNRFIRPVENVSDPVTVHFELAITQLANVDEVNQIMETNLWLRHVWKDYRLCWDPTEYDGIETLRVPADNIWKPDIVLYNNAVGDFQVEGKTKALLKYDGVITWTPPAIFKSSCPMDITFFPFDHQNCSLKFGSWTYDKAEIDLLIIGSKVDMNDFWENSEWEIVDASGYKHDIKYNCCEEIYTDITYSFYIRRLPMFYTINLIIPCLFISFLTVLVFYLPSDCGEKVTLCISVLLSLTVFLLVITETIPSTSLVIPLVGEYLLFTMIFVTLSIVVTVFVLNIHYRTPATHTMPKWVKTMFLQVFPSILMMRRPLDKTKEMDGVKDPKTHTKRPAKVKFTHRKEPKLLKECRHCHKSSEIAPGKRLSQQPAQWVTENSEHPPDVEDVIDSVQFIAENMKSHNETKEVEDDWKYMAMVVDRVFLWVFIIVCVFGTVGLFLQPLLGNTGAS
UniProt P12390, sequence (whole entry, looked up): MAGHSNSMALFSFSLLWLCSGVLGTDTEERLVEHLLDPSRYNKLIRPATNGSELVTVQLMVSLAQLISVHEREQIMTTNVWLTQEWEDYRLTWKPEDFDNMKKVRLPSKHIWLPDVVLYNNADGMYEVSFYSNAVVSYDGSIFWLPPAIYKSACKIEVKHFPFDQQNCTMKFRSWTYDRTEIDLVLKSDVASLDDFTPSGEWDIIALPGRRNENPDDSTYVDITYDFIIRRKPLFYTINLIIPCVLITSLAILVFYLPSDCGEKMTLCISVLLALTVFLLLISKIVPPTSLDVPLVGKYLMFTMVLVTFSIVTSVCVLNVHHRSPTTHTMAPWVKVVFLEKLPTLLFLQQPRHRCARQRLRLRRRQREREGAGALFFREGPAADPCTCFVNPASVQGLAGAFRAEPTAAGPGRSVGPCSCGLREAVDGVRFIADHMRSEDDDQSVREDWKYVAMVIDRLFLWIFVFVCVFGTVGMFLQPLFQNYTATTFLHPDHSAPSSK
UniProt P42260, sequence (whole entry, looked up): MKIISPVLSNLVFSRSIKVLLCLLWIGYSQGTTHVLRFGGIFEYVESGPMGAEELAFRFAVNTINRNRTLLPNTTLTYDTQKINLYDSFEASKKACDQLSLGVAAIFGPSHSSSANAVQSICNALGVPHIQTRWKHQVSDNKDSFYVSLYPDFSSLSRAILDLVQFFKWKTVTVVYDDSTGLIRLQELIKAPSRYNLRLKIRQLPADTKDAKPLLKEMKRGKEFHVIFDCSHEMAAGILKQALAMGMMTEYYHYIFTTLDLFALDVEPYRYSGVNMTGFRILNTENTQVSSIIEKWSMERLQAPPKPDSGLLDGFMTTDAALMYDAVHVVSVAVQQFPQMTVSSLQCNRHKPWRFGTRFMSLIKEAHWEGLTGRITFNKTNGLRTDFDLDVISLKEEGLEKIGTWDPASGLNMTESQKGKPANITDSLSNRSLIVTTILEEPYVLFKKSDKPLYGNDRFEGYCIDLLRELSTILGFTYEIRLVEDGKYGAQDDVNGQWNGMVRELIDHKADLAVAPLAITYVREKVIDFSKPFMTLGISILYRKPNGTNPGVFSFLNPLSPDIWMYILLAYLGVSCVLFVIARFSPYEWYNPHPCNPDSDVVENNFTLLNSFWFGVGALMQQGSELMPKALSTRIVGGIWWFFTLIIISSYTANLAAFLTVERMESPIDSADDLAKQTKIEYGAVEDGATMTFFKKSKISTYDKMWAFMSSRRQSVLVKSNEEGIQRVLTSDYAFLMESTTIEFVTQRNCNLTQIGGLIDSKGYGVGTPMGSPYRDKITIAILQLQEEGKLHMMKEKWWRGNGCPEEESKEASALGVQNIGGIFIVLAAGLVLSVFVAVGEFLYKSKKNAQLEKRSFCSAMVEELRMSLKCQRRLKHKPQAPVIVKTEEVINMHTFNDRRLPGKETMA
UniProt Q13336, sequence (whole entry, looked up): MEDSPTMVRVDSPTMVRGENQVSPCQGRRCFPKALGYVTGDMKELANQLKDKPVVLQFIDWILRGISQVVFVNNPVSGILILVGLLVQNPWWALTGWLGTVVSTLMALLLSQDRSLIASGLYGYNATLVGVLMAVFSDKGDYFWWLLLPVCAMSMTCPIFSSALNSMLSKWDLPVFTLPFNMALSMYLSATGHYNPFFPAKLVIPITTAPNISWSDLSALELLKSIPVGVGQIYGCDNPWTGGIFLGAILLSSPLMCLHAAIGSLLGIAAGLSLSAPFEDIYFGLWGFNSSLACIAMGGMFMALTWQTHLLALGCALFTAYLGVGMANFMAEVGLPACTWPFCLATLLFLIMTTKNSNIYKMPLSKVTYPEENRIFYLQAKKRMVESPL
UniProt Q9H0C2, sequence (whole entry, unmodified, looked up): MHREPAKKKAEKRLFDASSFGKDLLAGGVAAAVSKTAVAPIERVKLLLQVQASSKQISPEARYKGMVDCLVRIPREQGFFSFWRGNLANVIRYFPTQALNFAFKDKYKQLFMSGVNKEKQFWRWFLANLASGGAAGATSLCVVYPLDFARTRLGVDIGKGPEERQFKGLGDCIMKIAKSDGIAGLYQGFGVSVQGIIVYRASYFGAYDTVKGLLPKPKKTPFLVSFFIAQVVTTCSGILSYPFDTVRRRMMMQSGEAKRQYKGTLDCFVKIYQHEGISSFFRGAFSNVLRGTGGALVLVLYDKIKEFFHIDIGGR

The IC50 of `Cc1cn([C@H]2C=C[C@@H](COP(=O)(O)OP(=O)(O)OP(=O)(O)O)O2)c(=O)[nH]c1=O` is reported as 7.91 ± 1.22 µM (Gag-Pol polyprotein, reverse transcriptase (gag-pol, Human immunodeficiency virus type 1 group M subtype B, UniProt P04585, K653A); inhibitor; HIV-1).
The Kd of `O=c1c(O)c(-c2ccc(O)cc2O)oc2cc(O)cc(O)c12` is reported as 72.7 µM (Spike glycoprotein; binding, biolayer interferometry).
The Ki of `CC[C@H](C)[C@H](NC(=O)[C@H](CC(C)C)NC(=O)[C@H](CO)NC(=O)[C@H](CCC(=O)O)NC(=O)[C@@H](NC(=O)[C@H](CC(C)C)NC(=O)[C@H](CO)NC(=O)[C@@H](NC(=O)[C@H](Cc1ccc(O)cc1)NC(=O)[C@H](CS)NC(C)=O)[C@@H](C)O)[C@@H](C)CC)C(=O)N[C@@H](CCCNC(=N)N)C(=O)N[C@@H](CCC(=O)O)C(=O)N[C@@H](CO)C(=O)N[C@@H](CCC(N)=O)C(=O)N[C@@H](CCC(=O)O)C(=O)N[C@@H](CCC(N)=O)C(=O)N[C@@H](CCC(N)=O)C(=O)N[C@@H](CCC(=O)O)C(=O)N[C@@H](CCCCN)C(=O)N[C@@H](CC(N)=O)C(=O)N[C@@H](CCC(=O)O)C(=O)N[C@@H](CCC(N)=O)C(=O)N[C@@H](CCC(=O)O)C(=O)N[C@@H](CC(C)C)C(=O)N[C@@H](CCCNC(=N)N)C(=O)N[C@@H](CCC(=O)O)C(=O)N[C@@H](CC(C)C)C(=O)N[C@@H](CC(=O)O)C(=O)N[C@@H](CCCCN)C(N)=O` is reported as 3 ± 0.33 µM (Envelope glycoprotein gp160, gp41 hydrophobic pocket (env, Human immunodeficiency virus type 1 group M subtype B, UniProt P04578); HIV-1).
`CNC(=O)[C@@H](NC(=O)[C@H](CC(C)C)[C@H](O)C(=O)NO)C(C)(C)C`: “remaining fibrinogen Aα chain” 0.632 (human fibrinogen; SDS-PAGE; Daboia russelii; concentration not given, unit not given, with: AP venom; baseline: untreated fibrinogen).
The Ki of `COc1ccc(S(=O)(=O)N(CC(C)C)C[C@@H](O)[C@H](Cc2ccccc2)NC(=O)O[C@@H]2CCC[C@]23CCO[C@H](c2cc(OC)cc(OC)c2)C3)cc1` is reported as 0.133 µM (gag-pol protease; enzyme activity, inhibitor).
`N[C@@H](C[C@]1(C(=O)O)C[C@H]2OC[C@@H](O)[C@@H](O)[C@H]2O1)C(=O)O` has a Ki of 0.0084 µM (Glutamate receptor ionotropic, kainate 2 (Grik2, Rattus norvegicus, UniProt P42260); binding; HEK293T/17 membranes; with: [3H]kainate).
With `COc1ccc([C@H]2C[C@]3(CCC[C@H]3OC(=O)N[C@@H](Cc3ccccc3)[C@H](O)CN(CC(C)C)S(=O)(=O)c3ccc(OC)cc3)CCO2)cc1` the Ki was 0.0474 µM (gag-pol protease; enzyme activity, inhibitor).
`CC(=O)O[C@@H]1[C@H](N)[C@@H](OP(=O)(O)O)[C@@]2(C(=O)O)CS[C@@](O)(C(N)=O)[C@@H]1O2` gave a Kd of 1.64 ± 0.45 µM (DNA-directed RNA polymerase subunit beta' / DNA-directed RNA polymerase subunit beta (rpoC/rpoB, Escherichia coli, UniProt P0A8T7+P0A8V2, R933A); binding to elongation complex, 6-MI fluorescence titration; β′R933A RNAP; riboside RNA 3′-end adenine).
With `Nc1ncnc2c([C@@H]3N[C@H](CO)[C@@H](O)[C@H]3O)c[nH]c12` the inhibition was 0.5% (Venezuelan equine encephalitis virus; viral replication; HeLa, SH3; 0.8 µM).
`C=C1[C@@H]2CC[C@H]3[C@]4(C)C[C@H](O[C@@H]5O[C@H](CO)[C@@H](OS(=O)(=O)O)[C@H](OS(=O)(=O)O)[C@H]5OC(=O)CC(C)C)C[C@@H](C(=O)O)[C@H]4CC[C@]3(C2)[C@H]1O` — result for “IC50 difference between isoforms”: “no effect” (ADP/ATP translocase 4 (SLC25A31, Homo sapiens, UniProt Q9H0C2, A30V); ADP/ATP exchange; yeast mitochondria; human ANT isoforms).
With `C[C@H](Cn1cnc2c(N)ncnc21)OCP(=O)(O)O` the IC50 was 1.222 ± 0.00116 µM (gag-pol K653T reverse transcriptase; inhibitor; HIV-1).
For `Cn1cnc(Cn2c(=O)[nH]/c(=N\c3cc4cn(C)nc4cc3Cl)n(Cc3cc(F)c(F)cc3F)c2=O)n1`, “patients with adverse event” read 0% (human, severe renal impairment; oral, 375 mg, treatment-related decreased GFR, Moderate severity).
For `CC[C@H](C)[C@H](NC(=O)[C@H](CC(C)C)NC(=O)[C@H](Cc1c[nH]c2ccccc12)NC(=O)[C@H](CCC(N)=O)NC(=O)[C@@H](NC(=O)[C@H](Cc1ccccc1)NC(=O)[C@H](C)NC(=O)[C@H](CCCCNC(=O)COCCOCCNC(=O)COCCOCCNC(=O)CC[C@H](NC(=O)CCCCCCCCCCCCCCCCCCC(=O)O)C(=O)O)NC(=O)[C@H](CCC(N)=O)NC(=O)[C@H](C)NC(=O)[C@@H](NC(=O)[C@H](CCCCN)NC(=O)[C@H](CC(=O)O)NC(=O)[C@H](CC(C)C)NC(=O)C(C)(C)NC(=O)[C@@H](NC(=O)[C@H](CO)NC(=O)[C@H](Cc1ccc(O)cc1)NC(=O)[C@H](CC(=O)O)NC(=O)[C@H](CO)NC(=O)[C@@H](NC(=O)[C@H](Cc1ccccc1)NC(=O)[C@@H](NC(=O)CNC(=O)[C@H](CCC(=O)O)NC(=O)C(C)(C)NC(=O)[C@@H](N)Cc1ccc(O)cc1)[C@@H](C)O)[C@@H](C)O)[C@@H](C)CC)[C@@H](C)CC)C(C)C)C(=O)N[C@@H](C)C(=O)NCC(=O)NCC(=O)N1CCC[C@H]1C(=O)N[C@@H](CO)C(=O)N[C@@H](CO)C(=O)NCC(=O)N[C@@H](C)C(=O)N1CCC[C@H]1C(=O)N1CCC[C@H]1C(=O)N1CCC[C@H]1C(=O)N[C@@H](CO)C(N)=O`, “subjects with treatment-induced ADA” read 0% (item: anti-drug antibodies; healthy subjects; 0.5 mg, postbaseline, multiple ascending dose, titre ≥1:20).
`Clc1cc(N2C[C@@H]3CN[C@@H]3C2)cnc1Cl` gave a Ki of 0.0019 ± 0.0004 µM (Chrnb2/Chrna6 (Rattus norvegicus, UniProt P12390+P43143); rat).
For `COc1ccc(S(=O)(=O)N(CC(C)C)C[C@@H](O)[C@H](Cc2ccccc2)NC(=O)O[C@@H]2CCC[C@]23CCO[C@H](c2ccccc2OC)C3)cc1`, the Ki was 2.85 µM (gag-pol protease; inhibitor, fluorometric; HIV-1).
`Cc1cn([C@H]2C[C@H](N=[N+]=[N-])[C@@H](CO[P@](=O)(O)O[P@](=O)(O)OP(=O)(O)O)O2)c(=O)[nH]c1=O` has an IC50 of 0.2189 ± 0.00128 µM (gag-pol K653T reverse transcriptase; inhibitor; HIV-1).
For `COc1ccc(S(=O)(=O)N(CC(C)C)C[C@@H](O)[C@H](Cc2ccccc2)NC(=O)O[C@H]2CCC[C@]23CCO[C@H](c2cccc(OC)c2)C3)cc1`, the Ki was 0.14 µM (gag-pol protease; enzyme activity, inhibitor).
`CCC(N)=O` has a Ki of 30000 µM (Urea transporter 1 (Homo sapiens, UniProt Q13336); urea transport inhibition; with: thiourea).
With `CC[C@H](CC[C@@H](C)[C@H]1CC[C@H]2[C@@H]3CC=C4C[C@@H](O[C@@H]5O[C@H](CO)[C@@H](O)[C@H](O)[C@H]5O)CC[C@]4(C)[C@H]3CC[C@]12C)C(C)C` the Kd was 130 µM (Spike glycoprotein; binding, biolayer interferometry).
